Results collected from several papers.
Protocols differ between the studies behind these lines. Values joined by “and” are separate records of one study, mostly repeats; a detail may differ. ± marks the error that the study gave.

| Structure (SMILES) | tested on | test | test system | setting | how to read | quantity | result |
| --- | --- | --- | --- | --- | --- | --- | --- |
| Cn1ncc2cc(-c3cncc(Cl)c3N3CCC4(CCNC4=O)CC3)ccc21 | LS174T | gene expression, microarray, refers to: PDK1 mRNA | – | concentration not given, 4 h | baseline: untreated cells | log2 fold change | 1.4 |
| Cc1ccc(NC(=O)CCN2CCCCCC2)cc1C | – | – | zebrafish larvae, 7 dpf | 10 µM, minute 2 | – | larval motion | 11.2 ± 1.3 pixels/frame |
| C=CC(=O)Nc1cccc(Cn2ncc3cnc(Nc4cnn(CCOC)c4)nc32)c1 | OSR1 human | binding, KINOMEscan | – | 100 nM | lower = stronger binding | percent of control | 93% |
| Cc1ncsc1-c1ccc(C(C)NC(=O)C2CC(O)CN2C(=O)C(NC(=O)CCCCCCCCCCN2CCCC(Nc3ncc(Cl)c(Nc4ccccc4S(=O)(=O)C(C)C)n3)C2)C(C)(C)C)cc1 (stereo not drawn) | 22Rv1 | RNA-seq, refers to: PIK3R1 mRNA | – | concentration not given | baseline: DMSO | log2 fold change | -1.14 |
| c1ccc(-c2n[nH]cc2-c2ccnc3ccccc23)nc1 | RAD53 (Candida albicans) | kinase binding, MIB/MS competition | Candida albicans lysate | 1 µM | baseline: DMSO | log2 fold change | 1.36 |
| CC(C)c1ccc(N(C)c2ccc3c(c2)OCC[C@H]3CNc2cnccc2C(=O)O)cc1 | JIMT-1 | cell viability, CellTiter-Glo | – | 7 days | – | IC50 | 61.9 nM |
| CN1CCCNC(=O)c2cccc(c2)C(=O)NCCCN(C)CCCNc2cccc3c2C(=O)c2cccc(c2C3=O)NCCC1 | SAS | RNA-Seq, refers to: GOSR2 mRNA | – | 1 µM, 6 h | baseline: untreated cells | log2 fold change | -1.04 |
| COC1CN([C@H]2CC[C@H]([C@@]3(C)Oc4c(Cl)cc(C(=O)NCc5c(SC)cc(C)[nH]c5=O)c(C)c4O3)CC2)C1 | – | RNA-seq, refers to: TFPI2 mouse homolog | mouse, HT-1376 xenograft, whole blood | dose not given | baseline: vehicle | log2 fold change | 3.05 |
| CCN(CC)CC(=O)Nc1cccc(-n2cc(-c3ccc4ccc(-c5cn(-c6cccc(NC(=O)CN(CC)CC)c6)nn5)cc4c3)nn2)c1 | RCC4 | PCR angiogenesis array, refers to: VEGFB | – | 5 x IC50, 6 h, normoxia | baseline: untreated | fold regulation | 1.05 fold |
| CNS(=O)(=O)Nc1nccc(Cc2c(C)c3ccc(Oc4ncccc4F)cc3oc2=O)c1F | COLO-684 | cell viability | – | 7 days | – | IC50 | > 1000 nM |
| Cc1cc(OCCOCCn2ccnc2)cc(C(C)C)c1 | – | – | zebrafish larvae, 7 dpf | 10 µM, minute 4 | – | larval motion | 7.8 ± 1.2 pixels/frame |
| CN(C)C(=O)c1ccnc(N2Cc3cn(Cc4ccc(F)cc4F)nc3C2)n1 | – | – | mouse, hippocampal slice, Schaffer collaterals | dose not given, interstimulus interval 300 | baseline: second over first response | paired-pulse ratio | 1.18 and 1.32 and 1.21 and 1.78 and 1.17 and 1.29 and 1.27 |
| C=CC(=O)N1[C@@H](c2ccc3c(c2)OCO3)c2[nH]c3ccccc3c2C[C@H]1C(=O)N1CCN(C)CC1 | CCNE1 WT-3xFLAG:CDK2 complex | co-IP TMT proteomics, refers to: CDK2 | HEK-293T | 20 µM, 6 h | baseline: DMSO | log2 fold change | -0.0145 |
| Nc1ncc(-c2cc(-c3cnn(CC(F)(F)F)c3)ncc2F)nc1C(=O)NC1CNCC(F)C1 (stereo not drawn) | ABL1-phosphorylated | KINOMEscan competition binding | – | 1 µM | baseline: DMSO control | remaining binding | 83% |
| CCN(C(=O)c1cc(F)ccc1Oc1nncnc1N1CCC2(C1)CN([C@H](CCCN(C)CCOC)C(C)C)C2)C(C)C | SF-295 | – | brain | 168 h | – | GI50 | > 10000 nM |

A few entries again:
| Structure (SMILES) | tested on | test | test system | setting | how to read | quantity | result |
| --- | --- | --- | --- | --- | --- | --- | --- |
| CCN(C(=O)c1cc(F)ccc1Oc1nncnc1N1CCC2(C1)CN([C@H](CCCN(C)CCOC)C(C)C)C2)C(C)C | SF-295 | – | brain | 168 h | – | GI50 | > 10000 nM |
| CN1CCCNC(=O)c2cccc(c2)C(=O)NCCCN(C)CCCNc2cccc3c2C(=O)c2cccc(c2C3=O)NCCC1 | SAS | RNA-Seq, refers to: GOSR2 mRNA | – | 1 µM, 6 h | baseline: untreated cells | log2 fold change | -1.04 |
